Assay results collected from several papers.
Lines come from different studies, so protocols differ. Values joined by “and” are separate records of one study, mostly repeats; a detail may differ. Numbers after ± are the reported error.

| Structure (SMILES) | target or system | test | system | conditions | scale | measurement | value |
| --- | --- | --- | --- | --- | --- | --- | --- |
| O=C(O)c1cccnc1Nc1cccc(C(F)(F)F)c1 | – | shake-flask, potentiometric | 1-octanol/water | – | – | logP | 3.7 |
| CO[C@H]1C[C@@H]2CC[C@@H](C)[C@@](O)(O2)C(=O)C(=O)N2CCCC[C@H]2C(=O)O[C@H]([C@H](C)C[C@@H]2CC[C@@H](O)[C@H](OC)C2)CC(=O)[C@H](C)/C=C(\C)[C@@H](O)[C@@H](OC)C(=O)[C@H](C)C[C@H](C)/C=C/C=C/C=C/1C | – | – | healthy adult horses | intravenous, 0.06 mg/kg, 12 h | – | heart rate | 34 ± 3.5 beats/min |
| NC1(C(=O)N[C@@H](CCO)c2ccc(Cl)cc2)CCN(c2nc[nH]c3nccc2-3)CC1 | – | – | human, plasma | oral, 480 mg twice daily, with: enzalutamide 160 mg daily | – | dose-normalised Cmax | 917 ng/mL and 561 ng/mL and 915 ng/mL and 640 ng/mL and 1430 ng/mL |
| CN1CCc2ccc(/C=C/c3ccc4cc(C(=N)N)ccc4c3)cc2C1C1CCCCC1 (stereo not shown) | – | – | octanol/buffer | pH 11, urokinase ligand set | – | logP | > 4.5 |
| COc1cc2c3c(n(CCCN4CCOCC4)c(=O)c2cc1OC)-c1cc2c(cc1C3=O)OCO2 | – | – | dog | intravenous | – | MTD | 50 mg/m² |
| COc1ccc2nc(-c3ccccn3)c(N(C)c3ccc(F)cc3)n2c1 | – | – | CD1 mouse, male, fasted, plasma | oral, 50 mg/kg, with: ABT 50 mg/kg | – | CL/F | 634 mL/min/kg |
| CNC(=O)c1ccc(-c2cnc3ncc(Cc4ccc5ncccc5c4)n3n2)cc1F | – | – | Japanese patients | oral, 400 mg, grade 3/4 | – | Chills dose reduction/interruption | 0% |
| C[C@H]1CN(C(=O)CC#N)[C@]12CCN(c1ncnc3[nH]ccc13)C2 | – | – | healthy human | oral, 12 mg single | – | subjects with Vomiting | 0% |
| N#Cc1ccc2c(c1)[C@H]1CCCN(C(=O)c3ccc4[nH]cnc4c3)[C@H]1C2 | – | – | human | 20 mg, day 15 | – | mean ACTH level | 8.1 pmol/L |
| COc1cc(Nc2ncc3c(n2)-c2ccc(Cl)cc2C(c2c(F)cccc2OC)=NC3)ccc1C(=O)O | – | refers to: Fever, grade 1 | cancer patients, phase 1/2 | oral, dose not given, with: pembrolizumab | – | patients with adverse event | 8% |
| CCn1cc(C)c2c([C@H](O)c3ccc(C(F)(F)F)nc3)n(C)nc2c1=O | – | – | rat Sprague-Dawley male, blood | intravenous, 1 mg/kg | – | CLint,u | 75.9 mL/min/kg |
| Cc1cccc(Cn2cc(CO)c3cnccc32)c1 | – | – | F344 rat, male, serum | oral, 100 mg/kg/day, 2 days | – | AST | 117 U/L and 112 U/L and 110 U/L |
| CO[C@H]1C[C@@H]2CC[C@@H](C)[C@@](O)(O2)C(=O)C(=O)N2CCCC[C@H]2C(=O)O[C@H]([C@H](C)C[C@@H]2CC[C@@H](OC(=O)NCCOCCOCCOCCOCCOCCOCCOCCOCCC(=O)N3CCc4cc(Cn5nc(-c6ccc7oc(N)nc7c6)c6c(N)ncnc65)ccc4C3)[C@H](OC)C2)C[C@@H](O)[C@H](C)/C=C(\C)[C@@H](O)[C@@H](OC)C(=O)[C@H](C)C[C@H](C)/C=C/C=C/C=C/1C | – | – | tumour-bearing xenograft mice, plasma | intraperitoneal, 3 mg/kg, weekly dosing | – | AUClast | 52.5 µM·h |
| O=C1CCc2ccc(OCCCCN3CCN(c4cccc(Cl)c4Cl)CC3)cc2N1 | – | – | CYP2D6 ultrarapid metabolizers | concentration not given, genotype-based phenotype, long-acting oral or depot | – | gastrointestinal symptom frequency | 5% |
| O=c1c(O)c(-c2ccc(O)c(OS(=O)(=O)O)c2)oc2cc(O)cc(O)c12 | – | – | human, cerebrospinal fluid | concentration not given, mean | – | CSF concentration | 18.1 nM |
| C[C@@H](c1nc(-c2ccc(C#N)cc2)cs1)[C@](O)(Cn1cncn1)c1cc(F)ccc1F | – | – | healthy humans | oral, dose not given, with: ketoconazole | – | adverse event Diarrhea | 0% |
| COc1ccc(NC(=O)c2ccco2)cc1NC(=O)c1cccnc1 | – | – | octanol/buffer | pH 11, known kinase inactives set | – | logP | 1.53 |
| OC[C@H]1O[C@@H](c2ccc(F)c(Cc3cc4ccccc4s3)c2)[C@H](O)[C@@H](O)[C@@H]1O | – | – | Japanese patients, type 1 diabetes | oral, 50 mg/day, onset day 5 | reference: patients | hypoglycaemia-related adverse event | 3% |
| CN(CC#N)C(=O)C[C@H](Nc1nc2ccccc2[nH]1)c1cccc(C(F)(F)F)c1 | – | – | human | intravenous infusion, 4 mg/kg, 1 mg/mL formulation | – | steady-state volume of distribution | 52 ± 6.49 L |
| C=CC(=O)Nc1cc(Nc2nccc(Nc3cc(Cl)c(F)cc3C(C)(C)O)n2)c(OC)cc1N1CC[C@@H](N(C)C)C1 | – | – | human patients, plasma | oral, 200 mg daily, cycle 2 day 1, geometric mean | – | Css,max | 402 ng/mL |
| O=S(=O)(NCc1ccccn1)c1cc(Cl)c(Cl)cc1Cl | – | – | octanol/buffer | pH 11 | – | logP | 2.01 |
| CNCc1ccc(-c2[nH]c3cc(F)cc4c3c2CCNC4=O)cc1 | – | – | patients | oral, 480 mg twice daily, all grades | – | decreased appetite incidence | 11.1% |
| Cn1cnc2c(F)c(Nc3ccc(Br)cc3Cl)c(C(=O)NOCCO)cc21 | – | population PK model | human, plasma | oral, sequential zero-first-order absorption, fasted | – | zero-order absorption duration | 0.37 h |

| Structure (SMILES) | target or system | test | system | conditions | scale | measurement | value |
| --- | --- | --- | --- | --- | --- | --- | --- |
| Cn1cc(-c2ccc(-c3cncc(Cl)c3N3CCC4(CCNC4=O)CC3)cc2)cn1 | COLO 205 | microarray, refers to: CTGF | – | concentration not given, 2 h | reference: untreated cells | fold change in expression | 2.1 |
| CC[C@H](C)/C=C/C(=O)N1C[C@@H](C)C[C@H]1C(=O)N[C@@H](CCC1CCCCC1)C(=O)N[C@@H](CC(C)C)C(=O)NC(C)(C)C(=O)N[C@@H](CC(C)C)C(=O)N[C@@H](CC(C)C)C(=O)NC(C)(C)C(=O)NC(C)(C)C(=O)NCCC(=O)N[C@@H](C)CN(C)C | – | circular dichroism | phosphate buffer | pH 7.4, 20 °C | – | alpha-helix content | 93.6% |
| O=c1ccc2ccc(O)cc2o1 | – | – | cryopreserved human hepatocytes | 1 µM | – | scaled intrinsic clearance | 202 mL/min/kg |
| O=C(O)c1cc(O)c(O)c(O)c1 | – | – | male Ross broilers, serum | oral, 0.49 mg/kg BW, AUC(0-6 h) based | – | absolute bioavailability | 57.8% |
| CNC(=O)c1ccc(-c2cnc3ncc(Cc4ccc5ncccc5c4)n3n2)cc1F | – | – | human, plasma | oral, 300 mg twice daily, capsule, cycle 1 day 1 | – | AUC(0-inf), geometric mean | 8040 ng·h/mL |
| COc1ccc([C@@H](O)c2cc(-c3ncnc4cc(N5CCOCC5)ccc34)c(F)cc2Cl)nn1 | – | – | locally advanced rectal cancer patients | 150 mg, with: capecitabine and radiotherapy | – | diarrhoea TEAE incidence | 50% |
| CCn1cc(C(=O)N2CCOCC2)c(=O)c2cc(NC3Cc4ccccc4C3)cnc21 | – | – | human, fasted | oral suspension, 1200 mg single dose, arithmetic mean | – | Cmax | 821 ng/mL |
| Cc1cc(NC2CCN(C(=O)OC3CCN(C(=O)/C=C/CN(C)C)C3)CC2)n2ncc(C(C)C)c2n1 (stereo not shown) | – | Phase I dose escalation CTCAE v4.0, refers to: Hypomagnesemia | patients with advanced solid tumours | dose not given, all dose schedules any grade | – | patients with adverse event | 9% |
| CC1(CNC(=O)[C@H](CN)NC(=O)c2ccc(C#Cc3ccccc3)cc2)NC(=O)NC1=O (stereo partly shown) | – | – | octanol/buffer | pH 11 | – | logP | 0.62 |
| O=C(COc1ccc(Cl)cc1)NC12CC(c3nnc([C@H]4C[C@@H](OC(F)(F)F)C4)o3)(C1)C2 | – | refers to: abnormal haematology test | healthy humans, both sexes | oral, 400 mg, single ascending dose | reference: subjects | treatment-emergent adverse events | 16.7% |
| CC(C)(C(=O)N1CCOc2c(C#N)cncc2C1)C(F)F | – | refers to: Ecchymosis | human | oral, 15 mg twice daily, 14 days, multiple ascending dose | – | subjects with adverse event | 0% |
| O=C(Cc1ccc(OC(F)(F)F)cc1)Nc1cc(C2CC2)[nH]n1 | – | – | octanol/buffer, 40 mM buffer | pH 11 | – | logP | 3.77 |
| COc1ccc2c(=O)n(C)c(-c3ccccc3)nc2c1 | – | – | male Sprague-Dawley rat, stomach | oral, 30 mg/kg, 2 h | – | tissue concentration | 1370 ng/g |
| Cc1ccc2c(c1)sc(-c1ccc(N(C)C)cc1)[n+]2C | – | – | PBS | free dye | – | emission maximum wavelength | 488 nm |
| Cc1cc(NC(=O)c2cccc(NC(=O)/C=C/CN(C)C)c2)ccc1Nc1nccc(-c2cccnc2)n1 | – | metabolic stability | Wistar rat, male, primary hepatocytes | 1 µM, 10 min | – | compound remaining | 90.1% |
| C[C@@H]1CCO[C@H]2Cn3cc(C(=O)NCc4ccc(F)cc4F)c(=O)c(O)c3C(=O)N12 | – | – | Tat- transgenic mouse, hippocampus | subcutaneous osmotic pump, dose not given, 5 d | – | drug concentration | 4800 ± 1100 ng/g |
| NC(=O)c1cnc2[nH]ccc2c1N[C@@H]1[C@@H]2CC3C[C@H]1C[C@@](O)(C3)C2 | – | – | healthy human volunteers, plasma | oral, population PK model estimate | – | zero-order absorption duration | 1.3 h |
| COc1ccc2c(C)nc(Nc3nc(C)cc(O)n3)nc2c1 | – | – | octanol/buffer | pH 11 | – | logP | 1.61 |
| Cc1ccc([C@@H]2O[C@H](CO)[C@@H](O)[C@H](O)[C@H]2O)cc1Cc1ccc(-c2ccc(F)cc2)s1 | – | – | Japanese type 2 diabetes patients | 200 mg, day 2, 24 h urine collection | reference: baseline | urinary sodium excretion change | -14.4 mEq |
| N[C@H]1C(O)O[C@H](CO)[C@@H](O)[C@@H]1O (stereo partly shown) | – | – | aqueous solution | 25 mM, with: glucose | – | osmolality | 22 mOsmol/kg |
| CC(C)c1nc(N(C)S(C)(=O)=O)nc(-c2ccc(F)cc2)c1/C=C/[C@@H](O)C[C@@H](O)CC(=O)O | – | – | human, plasma | oral, 20 mg, day 2, mean, single agent | – | Vd/F | 10400 L |
| Cc1cc(-c2nccc3c2ccn3CC(=O)Nc2ccc(-c3cnccn3)cn2)ccn1 | – | refers to: AUCtau | human, plasma | oral, 5 mg once daily | reference: day 16 over day 1 | accumulation ratio | 1.59 |
| C[C@@H](Oc1cc(-c2cnn(C3CCNCC3)c2)cnc1N)c1c(Cl)ccc(F)c1Cl | – | – | patients, plasma | oral, dose not given, cycle 2 day 1, with: avelumab | – | dose-normalised Cmax, mean | 1 ng/mL/mg |

For quick reference, copied from above:
| Structure (SMILES) | target or system | test | system | conditions | scale | measurement | value |
| --- | --- | --- | --- | --- | --- | --- | --- |
| Cc1cc(NC(=O)c2cccc(NC(=O)/C=C/CN(C)C)c2)ccc1Nc1nccc(-c2cccnc2)n1 | – | metabolic stability | Wistar rat, male, primary hepatocytes | 1 µM, 10 min | – | compound remaining | 90.1% |
| Cc1ccc([C@@H]2O[C@H](CO)[C@@H](O)[C@H](O)[C@H]2O)cc1Cc1ccc(-c2ccc(F)cc2)s1 | – | – | Japanese type 2 diabetes patients | 200 mg, day 2, 24 h urine collection | reference: baseline | urinary sodium excretion change | -14.4 mEq |
| CN(CC#N)C(=O)C[C@H](Nc1nc2ccccc2[nH]1)c1cccc(C(F)(F)F)c1 | – | – | human | intravenous infusion, 4 mg/kg, 1 mg/mL formulation | – | steady-state volume of distribution | 52 ± 6.49 L |
| Cc1cccc(Cn2cc(CO)c3cnccc32)c1 | – | – | F344 rat, male, serum | oral, 100 mg/kg/day, 2 days | – | AST | 117 U/L and 112 U/L and 110 U/L |
| O=C1CCc2ccc(OCCCCN3CCN(c4cccc(Cl)c4Cl)CC3)cc2N1 | – | – | CYP2D6 ultrarapid metabolizers | concentration not given, genotype-based phenotype, long-acting oral or depot | – | gastrointestinal symptom frequency | 5% |
| CC(C)(C(=O)N1CCOc2c(C#N)cncc2C1)C(F)F | – | refers to: Ecchymosis | human | oral, 15 mg twice daily, 14 days, multiple ascending dose | – | subjects with adverse event | 0% |
| O=C(O)c1cc(O)c(O)c(O)c1 | – | – | male Ross broilers, serum | oral, 0.49 mg/kg BW, AUC(0-6 h) based | – | absolute bioavailability | 57.8% |
